Results of several laboratories.
Every numbered part comes from another study and shows a few of its results, in no order.

Set 1 — technique: protein-binding microarray; form: double-stranded DNA, one strand shown; matrix: in vitro; tested at: not given; direction: higher = stronger binding; measurement: E-score
Target: Transcription factor Sp1 (SP1, Homo sapiens, UniProt P08047, residues 1-785, full length assumed)
Chain of UniProt P08047 (whole entry, looked up): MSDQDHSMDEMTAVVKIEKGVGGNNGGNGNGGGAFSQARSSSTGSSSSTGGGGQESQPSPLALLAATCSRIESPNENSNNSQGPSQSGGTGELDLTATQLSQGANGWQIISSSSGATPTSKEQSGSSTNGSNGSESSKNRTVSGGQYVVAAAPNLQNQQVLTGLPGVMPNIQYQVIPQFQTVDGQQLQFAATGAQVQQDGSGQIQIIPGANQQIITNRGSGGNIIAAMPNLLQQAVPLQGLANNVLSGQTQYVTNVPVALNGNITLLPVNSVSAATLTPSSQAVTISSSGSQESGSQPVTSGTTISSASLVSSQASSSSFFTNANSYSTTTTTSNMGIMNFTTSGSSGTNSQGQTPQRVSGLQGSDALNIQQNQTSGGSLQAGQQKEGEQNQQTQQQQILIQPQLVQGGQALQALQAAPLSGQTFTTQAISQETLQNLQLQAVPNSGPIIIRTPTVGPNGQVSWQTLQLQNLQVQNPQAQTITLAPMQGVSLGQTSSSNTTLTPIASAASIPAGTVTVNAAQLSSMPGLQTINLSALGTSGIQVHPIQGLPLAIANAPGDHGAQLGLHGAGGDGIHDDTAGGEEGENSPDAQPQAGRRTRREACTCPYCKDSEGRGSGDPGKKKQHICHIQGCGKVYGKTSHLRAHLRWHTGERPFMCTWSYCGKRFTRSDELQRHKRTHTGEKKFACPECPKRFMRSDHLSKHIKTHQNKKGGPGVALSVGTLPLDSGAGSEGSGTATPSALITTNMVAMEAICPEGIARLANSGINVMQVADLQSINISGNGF
Notes: k-mer, scored over probes, only values ≥0.25
AACTAATA: 0.26
ACCATGTA: 0.251
TACCCCGA: 0.28
TAGTACTA: 0.257
AAATAGGG: 0.282
CTCCCTCC: 0.273
CGTCCTCC: 0.257
AGTGGGAG: 0.341

Set 2 — technique: RNA Bind-n-Seq; form: RNA; matrix: in vitro; tested at: 15 pmol; notes: 4-mer, random 30-nt RNA, single round; with: 3 µM RocA, 2 mM AMP-PNP; relative to: mean of 4-mers; direction: higher = stronger binding; measurement: 4-mer enrichment Z-score
Target: Eukaryotic initiation factor 4A-I (EIF4A1, Homo sapiens, UniProt P60842, residues 1-406, full length assumed)
Chain of UniProt P60842 (whole entry, looked up): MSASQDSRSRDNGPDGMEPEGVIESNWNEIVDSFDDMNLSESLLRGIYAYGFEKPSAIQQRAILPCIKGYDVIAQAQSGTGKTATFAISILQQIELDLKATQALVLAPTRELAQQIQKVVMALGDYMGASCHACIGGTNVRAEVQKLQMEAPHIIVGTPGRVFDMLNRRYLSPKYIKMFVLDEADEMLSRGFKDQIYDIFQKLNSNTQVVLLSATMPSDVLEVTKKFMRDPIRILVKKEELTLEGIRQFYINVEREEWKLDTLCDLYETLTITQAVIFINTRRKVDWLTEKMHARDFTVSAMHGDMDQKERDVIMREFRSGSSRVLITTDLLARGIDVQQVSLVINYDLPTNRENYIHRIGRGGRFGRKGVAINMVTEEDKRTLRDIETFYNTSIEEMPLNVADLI
GCCA: -0.843
UGCG: 0.846
CAUG: -0.595
CUAG: -0.291
CACG: -0.887
AUAA: 0.823
AAUG: 1.25
UGUA: 0.651

Set 3 — technique: RNA Bind-n-Seq; form: RNA; matrix: in vitro; tested at: 200 nM; notes: whole 134-nt RNA, ends assumed; with: 150 mM KCl; relative to: input library; direction: higher = stronger binding; measurement: log2 enrichment
Target: Fragile X messenger ribonucleoprotein 1, C-terminal low-complexity region (Fmr1, Mus musculus, UniProt P35922)
Shared flanks, not repeated: GGGAGUUCUACAGUCCGACGAUC … UGGAAUUCUCGGGUGUCAAGG
GUCCUGUGCUACACAUCGUAUGUACCGAAUCGGGUUUGGGUUUUUUUGGGAAAAAGGGAAAGUAUUAUGUUACGCCGUUCGGAUCUGCAC: 0.0634
GCAGGAAGUAAAAACAAAUGGAAAUGCUUCGGAUAGUGGCAGGGGUGGGGGUGGCUAAGGAAAGGGUGGGAUGGGAGUGGGUAAAGAGUU: 0.0055
CCUCAAGUCCUGUGCUACACAUCGUAUGUACCGAAUCGGCCGGGGCCGGCCGGAAAGUAUUAUGUUACGCCGUUCGGAUCUGCACUUCCA: -0.273
GCAGGAAGUAAAAACAAAUUGAAAUGCUUCGGAUAGUGGCAGGGGUGGGGGUUGCUAAGGAAAGGGUGGGAUGGGAGUGGGUAAAGAGUU: 0.426
UAACUUUAUAGGAGGAUCUGAUGGAUAUGGCAGUGGACGUGGAUUUGGGGAUGGCUAUAAUGGGUAUGGAGGAGGACCUGGAGGUGGCAA: 0.24
UCCUGUGCUACACAUCGUAUGUACCGAAUCGGGGAAAGGGGUUUGGGGAAAAAAAGGGGAAAGUAUUAUGUUACGCCGUUCGGAUCUGCA: 0.469
GCAGGAAGUAAAAACAAAUGGAAAUGCUUCGGAUAGUGGCAGGGGUGGGGGUUGCUAAGGAAAGGGUGGGAUGGGAAAAGGUAAAGAGUU: 0.186
GUCCUGUGCUACACAUCGUAUGUACCGAAUCGGGGAGGGGAAAAAGGGGAAAAAGGGGAAAGUAUUAUGUUACGCCGUUCGGAUCUGCAC: 0.223

Other studies, line by line
MSAIVSCRY — binding (HLA class I histocompatibility antigen, A alpha chain, allele A*80:01 (Homo sapiens, UniProt P04439); peptide-MHC binding; peptide; concentration not given): inactive

A few entries again (set 1):
AACTAATA: 0.26
